Assay results of several laboratories.
Lines come from different studies, so protocols differ. Several values in a cell are separate wells, animals, samples, runs or records. ± marks the error that the study gave.

| SMILES | cell line | test | system | conditions | scale | quantity | result |
| --- | --- | --- | --- | --- | --- | --- | --- |
| O=C(N1CCCC1)n1cc(-c2ccc(-c3ccccc3)cc2)nn1 | mouse T cells | N-terminal labelling proteomics, measured: Ccdc97 N-terminal peptide | – | 0.001 µM, 6 h | baseline: DMSO | SILAC ratio per peptide | 1.02 and 1.26 and 1.33 |
| O=C(CCCCCOc1ccc2ccccc2c1)N[C@@H](CO)C[C@@H](O)c1ccc(-c2ccccc2)cc1 | HeLa | CERT activity, HPLC-MS/MS lipidomics, measured: lactosylceramide 16 | – | 1 µM, 24 h, not cell-number normalised | – | lactosylceramide level | 22700 pmol/sample and 26300 pmol/sample and 24000 pmol/sample |
| CCN(C(=O)c1cc(F)ccc1Oc1nncnc1N1CCC2(C1)CN([C@H](CCCN(C)CCOC)C(C)C)C2)C(C)C | BT-20 | cell growth or viability | – | 72 h | – | GI50 | > 10 µM |
| CCN(CC)CCNC(=S)Nc1ccc2nc(N3CCN(CC)CC3)cc(C)c2c1 | U2OS SSA-GFP reporter | single-strand annealing repair, flow cytometry | – | 5 µM | – | GFP-positive cells | 6.54% |
| [BH3-][P+]1(c2ccccc2)CCCCC1 | PC-3 | MTT | – | 72 h | baseline: IC50 HaCaT over IC50 PC-3 | selectivity index | 2.7 |
| CCCCCCC(=O)[O][Pt]([NH2])([NH2])([Cl])([Cl])[O]C(=O)CCC(C)C1CCC2C3CCC4CC(O)CCC4(C)C3CCC12C (stereo not drawn) | PC-3 | Western blot | – | 1 to 2 µM, 48 h, with: cisplatin 2 µM | – | Bax protein level | increased |
| N#Cc1cccc(/C=C/C(=O)c2ccc(O)cc2)c1 | U-87 MG | measured: FBXO32 | – | concentration not given | baseline: untreated | fold change | 40.8 |
| Cc1cc(NC2CCN(C)CC2)ccc1-c1cc2c(N3CCC[C@H](C(=O)NCc4ccc(OC(F)(F)F)cc4)C3)ncnc2[nH]1 | KARPAS-299 | cell growth or viability, MTT | – | 0.04 µg/mL, 72 h | – | inhibition | 70.9% |
| CCCCN1C(=O)c2cccc3c(NCCCCCCN4CCOCC4)ccc(c23)C1=O | BHK-21 | confocal colocalization | – | 0.2 µM, with: Mito-Tracker Red 0.3 µM | – | Pearson's coefficient | 0.67 ± 0.02 |
| CN1CCN(C(=O)c2ccc(-c3cc4c(N5CCC[C@H](C(=O)NCc6ccc(OC(F)(F)F)cc6)C5)ncnc4[nH]3)cc2)CC1 | KARPAS-299 | cell growth or viability, MTT | – | 0.0016 µg/mL, 72 h | – | inhibition | 17% |
| CCC(=CCc1c(O)cc2c(c1O)C(=O)CC(c1ccc(O)cc1)O2)CC (stereo not drawn) | HeLa | flow cytometry | – | 12 µM, 48 h | – | active caspase-3 cells | 3.85 ± 0.13% |
| C=C1C(=O)OC2C1CCC(C)(O)C13C=CC(C)(C21)C1(C3)C(=O)OC2C3C(C)C(=O)CC3C(=C)CC(OC(C)=O)C21 (stereo not drawn) | AML12 mouse hepatocytes | lipid accumulation, Nile Red staining | – | maximum safe concentration, 24 h, with: palmitic acid/oleic acid | – | maximum inhibition | 85.3 ± 6.21% |
| C[C@@H](Nc1nc2c(cnn2C(C)(C)C)c(=O)n1Cc1cccc(F)c1)c1ccc(Cl)cc1 | BV-2 | – | – | concentration not given, with: LPS 0.5 µg/mL | – | NO production | decreased |
| Cc1cnc(Nc2ccc(C3CCN(C)CC3)c(F)c2)nc1Nc1ccc(Cl)c(NS(=O)(=O)C(C)(C)C)c1 | MM1.S | measured: MYC | – | 3 µM, 6 h | baseline: vehicle | protein reduction | ~92% |
| O=C(C[Se]C(=O)C12CC3CC(CC(C3)C1)C2)Nc1cccc(C(F)(F)F)c1 | NCI60 CNS cancer panel | five-dose screen | – | – | – | GI50 | 2.48 µM |
| COc1cccc(O)c1C(=O)/C=C/c1ccc2cc(N3CCCC3)ccc2c1 | HK-2 | – | – | concentration not given, with: cisplatin | – | MDA level | decreased |
| Cc1cc(Cl)cc(-c2ccnc3cc(CN4C(=O)C5C(C4=O)C5(C)C)sc23)c1C[C@@H]1CNCCO1 (stereo partly drawn) | CHP-212 parental (wild-type USP7) | PI flow cytometry | – | 0.1 µM, 24 h | – | cells in G2/M phase | 20.2% and 18.2% and 21.4% |

| SMILES | cell line | test | system | conditions | scale | quantity | result |
| --- | --- | --- | --- | --- | --- | --- | --- |
| CN1CCCNC(=O)c2cccc(c2)C(=O)NCCCN(C)CCCNc2cccc3c2C(=O)c2cccc(c2C3=O)NCCC1 | SAS | RNA-seq, measured: TES mRNA | – | 1 µM, 6 h | baseline: untreated cells | log2 fold change | -0.365 |
| Cc1ccc(-n2cc(CSc3nc4ccccc4n3Cc3cn(-c4ccc(C)cc4)nn3)nn2)cc1 | MDA-MB-231 | MTT | – | 31.3 ppm | – | cytotoxicity | 85.2% |
| Cc1ncsc1-c1ccc(C(C)NC(=O)C2CC(O)CN2C(=O)C(NC(=O)CCCCCCCCCCN2CCCC(Nc3ncc(Cl)c(Nc4ccccc4S(=O)(=O)C(C)C)n3)C2)C(C)(C)C)cc1 (stereo not drawn) | 22Rv1 | RNA-seq, measured: PLPP6 mRNA | – | concentration not given | baseline: DMSO | log2 fold change | -1.9 |
| C=CC(=O)N1[C@H](c2ccc3c(c2)OCO3)c2[nH]c3ccccc3c2C[C@@H]1C(=O)NC1CC1 | rat DRG neurons | – | – | 30 µM, 48 h, with: vincristine 40 nM | – | mean neuron degeneration | 20.6% |
| C=C1C(=O)OC2C1CCC(C)(O)C13C=CC(C)(C21)C1(C3)C(=O)OC2C3C(=C(C)CC(OC(C)=O)C21)CC(Cl)C3(C)O (stereo not drawn) | AML12 mouse hepatocytes | lipid accumulation, Nile Red staining | – | maximum safe concentration, 24 h, with: palmitic acid/oleic acid | – | maximum inhibition | 14.3 ± 1.82% |
| COC(=O)c1cc(NC2=NC(=O)C(=Cc3ccc(N(C)C)cc3)S2)ccc1OC(C)=O | MCF7 | GC-MS, measured: Uracil | – | 1 µM | baseline: DMSO | metabolite level | 0.5 fold change |
| COC(=O)[C@@]1(C)C=C(C(=O)Nc2cccc(C(=O)Nc3ccc(Nc4nccc(-c5cccnc5)n4)c(C)c3)c2)C(=O)CC1 | HEK293 AP1 reporter cells | AP-1 reporter gene, inhibitor | – | 1 µM, 6 h, unit not given, with: PMA | baseline: PMA alone | reporter activity | 1.04 and 1.02 |
| CNS(=O)(=O)Nc1nccc(Cc2c(C)c3ccc(Oc4ncccc4F)cc3oc2=O)c1F | WM 266-4 | cell viability, inhibitor, CellTiter-Glo | – | 7 days | – | IC50 | 0.00368 µM |
| CC(C)c1ccc(N(C)c2ccc3c(c2)OCC[C@H]3CNc2cnccc2C(=O)O)cc1 | NCI-H1734 | cell growth or viability, ATP luminescence | – | 7 days | – | IC50 | ≥ 10 µM |
| COc1ccccc1-c1ccncc1C(=O)Nc1nnc(OCc2ccc(Cl)cc2)s1 | DLD-1 parental | – | – | 4 µM, single replicate | – | colony count | 82 and 72 and 67 and 81 and 77 |
| CCOc1cncc(-c2ccc(NC(=O)C3(c4ccnc(NS(=O)(=O)C5CC5)n4)CCOCC3)nc2)n1 | lung cancer | cell viability, CellTiter-Glo | DMSO 0.1% | 72 h, line code 2478 | – | IC50 | 0.132 µM |
| CCc1c(C)c2ccc(OC(C)C)c(C)c2oc1=O | PC-3 | cell growth or viability, MTT | – | 62.5 µg/mL | – | viability | 14.5% |
| Cn1ncc2cc(-c3cncc(Cl)c3N3CCC4(CCNC4=O)CC3)ccc21 | LS174T | gene expression, microarray, measured: KLF6 mRNA | – | concentration not given, 4 h | baseline: untreated cells | log2 fold change | 2.54 |
| CCN(CC)CC(=O)Nc1cccc(-n2cc(-c3ccc4ccc(-c5cn(-c6cccc(NC(=O)CN(CC)CC)c6)nn5)cc4c3)nn2)c1 | RCC4 | PCR angiogenesis array, measured: JAG1 | – | 5 x IC50, 6 h, normoxia | baseline: untreated | fold regulation | 1.11 |
| COc1cc(N2CCN(C(=O)C3CCCN3)CC2)ccc1Nc1ncc(Cl)c(Nc2ccccc2P(C)(C)=O)n1 (stereo not drawn) | NCI-H3122 | flow cytometry | – | 500 nM, 24 h | – | G1 phase cells | 85.7% and 85.8% and 88% |
| CO[C@@H]1[C@@H](OC(N)=O)[C@@H](O)[C@H](Oc2ccc3c(O)c(NC(=O)c4ccc(O)c(CC=C(C)C)c4)c(=O)oc3c2C)OC1(C)C | HCT-116 BRCA2 wild-type | – | – | 300 µM, mean of replicates A, B | baseline: untreated | colony survival | 32.8% |

Repeated from above:
| SMILES | cell line | test | system | conditions | scale | quantity | result |
| --- | --- | --- | --- | --- | --- | --- | --- |
| Cc1cc(Cl)cc(-c2ccnc3cc(CN4C(=O)C5C(C4=O)C5(C)C)sc23)c1C[C@@H]1CNCCO1 (stereo partly drawn) | CHP-212 parental (wild-type USP7) | PI flow cytometry | – | 0.1 µM, 24 h | – | cells in G2/M phase | 20.2% and 18.2% and 21.4% |
| Cn1ncc2cc(-c3cncc(Cl)c3N3CCC4(CCNC4=O)CC3)ccc21 | LS174T | gene expression, microarray, measured: KLF6 mRNA | – | concentration not given, 4 h | baseline: untreated cells | log2 fold change | 2.54 |
| CCc1c(C)c2ccc(OC(C)C)c(C)c2oc1=O | PC-3 | cell growth or viability, MTT | – | 62.5 µg/mL | – | viability | 14.5% |
| CCN(CC)CC(=O)Nc1cccc(-n2cc(-c3ccc4ccc(-c5cn(-c6cccc(NC(=O)CN(CC)CC)c6)nn5)cc4c3)nn2)c1 | RCC4 | PCR angiogenesis array, measured: JAG1 | – | 5 x IC50, 6 h, normoxia | baseline: untreated | fold regulation | 1.11 |
| CNS(=O)(=O)Nc1nccc(Cc2c(C)c3ccc(Oc4ncccc4F)cc3oc2=O)c1F | WM 266-4 | cell viability, inhibitor, CellTiter-Glo | – | 7 days | – | IC50 | 0.00368 µM |
